Measurements from different studies.
Each line is one published result; not all experiments were run side by side. ± gives the spread as reported.
T1: ssDNA, aptamer; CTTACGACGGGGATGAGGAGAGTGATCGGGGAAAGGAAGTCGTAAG
Sequence of UniProt Q5A6T5 (whole entry, looked up): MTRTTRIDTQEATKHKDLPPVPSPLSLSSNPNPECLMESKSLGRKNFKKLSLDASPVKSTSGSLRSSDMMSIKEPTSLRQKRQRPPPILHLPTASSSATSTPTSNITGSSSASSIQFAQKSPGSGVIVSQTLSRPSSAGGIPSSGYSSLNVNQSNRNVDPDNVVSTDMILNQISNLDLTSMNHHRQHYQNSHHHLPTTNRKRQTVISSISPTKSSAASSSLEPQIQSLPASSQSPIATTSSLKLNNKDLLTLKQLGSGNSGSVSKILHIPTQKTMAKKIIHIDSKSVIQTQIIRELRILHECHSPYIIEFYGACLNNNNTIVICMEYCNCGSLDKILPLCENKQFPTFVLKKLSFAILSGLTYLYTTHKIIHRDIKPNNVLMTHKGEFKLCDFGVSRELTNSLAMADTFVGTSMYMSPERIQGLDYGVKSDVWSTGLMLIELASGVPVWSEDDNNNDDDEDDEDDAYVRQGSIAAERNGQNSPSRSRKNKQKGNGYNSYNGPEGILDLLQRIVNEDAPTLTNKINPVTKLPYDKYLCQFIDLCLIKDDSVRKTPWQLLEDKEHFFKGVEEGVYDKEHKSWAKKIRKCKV
Sequence of UniProt Q15046 (whole entry, looked up): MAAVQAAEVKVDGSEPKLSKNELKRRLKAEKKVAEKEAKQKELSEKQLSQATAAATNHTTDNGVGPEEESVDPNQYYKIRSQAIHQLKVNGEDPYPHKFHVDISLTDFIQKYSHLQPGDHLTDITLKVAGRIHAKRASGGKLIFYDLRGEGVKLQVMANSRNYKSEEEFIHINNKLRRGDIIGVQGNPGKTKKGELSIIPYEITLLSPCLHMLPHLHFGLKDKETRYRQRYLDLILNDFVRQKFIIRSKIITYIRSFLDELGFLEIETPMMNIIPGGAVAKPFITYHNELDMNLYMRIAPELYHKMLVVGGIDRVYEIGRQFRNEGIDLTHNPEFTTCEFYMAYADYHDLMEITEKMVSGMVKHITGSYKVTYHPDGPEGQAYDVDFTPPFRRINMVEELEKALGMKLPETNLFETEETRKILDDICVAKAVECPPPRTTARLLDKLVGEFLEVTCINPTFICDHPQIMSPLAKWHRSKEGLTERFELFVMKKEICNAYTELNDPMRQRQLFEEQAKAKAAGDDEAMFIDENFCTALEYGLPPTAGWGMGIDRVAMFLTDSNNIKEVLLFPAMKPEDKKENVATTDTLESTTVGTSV
Sequence of UniProt Q60893 (whole entry, looked up): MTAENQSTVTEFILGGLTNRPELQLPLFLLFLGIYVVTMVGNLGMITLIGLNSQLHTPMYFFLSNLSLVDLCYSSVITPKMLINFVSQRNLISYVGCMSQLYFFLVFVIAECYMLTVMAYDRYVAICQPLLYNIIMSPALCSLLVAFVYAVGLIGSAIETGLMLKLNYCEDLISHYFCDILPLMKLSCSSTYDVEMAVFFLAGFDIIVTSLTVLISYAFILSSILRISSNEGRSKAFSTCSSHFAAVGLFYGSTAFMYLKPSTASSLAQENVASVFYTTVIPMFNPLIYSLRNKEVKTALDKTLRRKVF
Sequence of UniProt Q13315 (whole entry, looked up): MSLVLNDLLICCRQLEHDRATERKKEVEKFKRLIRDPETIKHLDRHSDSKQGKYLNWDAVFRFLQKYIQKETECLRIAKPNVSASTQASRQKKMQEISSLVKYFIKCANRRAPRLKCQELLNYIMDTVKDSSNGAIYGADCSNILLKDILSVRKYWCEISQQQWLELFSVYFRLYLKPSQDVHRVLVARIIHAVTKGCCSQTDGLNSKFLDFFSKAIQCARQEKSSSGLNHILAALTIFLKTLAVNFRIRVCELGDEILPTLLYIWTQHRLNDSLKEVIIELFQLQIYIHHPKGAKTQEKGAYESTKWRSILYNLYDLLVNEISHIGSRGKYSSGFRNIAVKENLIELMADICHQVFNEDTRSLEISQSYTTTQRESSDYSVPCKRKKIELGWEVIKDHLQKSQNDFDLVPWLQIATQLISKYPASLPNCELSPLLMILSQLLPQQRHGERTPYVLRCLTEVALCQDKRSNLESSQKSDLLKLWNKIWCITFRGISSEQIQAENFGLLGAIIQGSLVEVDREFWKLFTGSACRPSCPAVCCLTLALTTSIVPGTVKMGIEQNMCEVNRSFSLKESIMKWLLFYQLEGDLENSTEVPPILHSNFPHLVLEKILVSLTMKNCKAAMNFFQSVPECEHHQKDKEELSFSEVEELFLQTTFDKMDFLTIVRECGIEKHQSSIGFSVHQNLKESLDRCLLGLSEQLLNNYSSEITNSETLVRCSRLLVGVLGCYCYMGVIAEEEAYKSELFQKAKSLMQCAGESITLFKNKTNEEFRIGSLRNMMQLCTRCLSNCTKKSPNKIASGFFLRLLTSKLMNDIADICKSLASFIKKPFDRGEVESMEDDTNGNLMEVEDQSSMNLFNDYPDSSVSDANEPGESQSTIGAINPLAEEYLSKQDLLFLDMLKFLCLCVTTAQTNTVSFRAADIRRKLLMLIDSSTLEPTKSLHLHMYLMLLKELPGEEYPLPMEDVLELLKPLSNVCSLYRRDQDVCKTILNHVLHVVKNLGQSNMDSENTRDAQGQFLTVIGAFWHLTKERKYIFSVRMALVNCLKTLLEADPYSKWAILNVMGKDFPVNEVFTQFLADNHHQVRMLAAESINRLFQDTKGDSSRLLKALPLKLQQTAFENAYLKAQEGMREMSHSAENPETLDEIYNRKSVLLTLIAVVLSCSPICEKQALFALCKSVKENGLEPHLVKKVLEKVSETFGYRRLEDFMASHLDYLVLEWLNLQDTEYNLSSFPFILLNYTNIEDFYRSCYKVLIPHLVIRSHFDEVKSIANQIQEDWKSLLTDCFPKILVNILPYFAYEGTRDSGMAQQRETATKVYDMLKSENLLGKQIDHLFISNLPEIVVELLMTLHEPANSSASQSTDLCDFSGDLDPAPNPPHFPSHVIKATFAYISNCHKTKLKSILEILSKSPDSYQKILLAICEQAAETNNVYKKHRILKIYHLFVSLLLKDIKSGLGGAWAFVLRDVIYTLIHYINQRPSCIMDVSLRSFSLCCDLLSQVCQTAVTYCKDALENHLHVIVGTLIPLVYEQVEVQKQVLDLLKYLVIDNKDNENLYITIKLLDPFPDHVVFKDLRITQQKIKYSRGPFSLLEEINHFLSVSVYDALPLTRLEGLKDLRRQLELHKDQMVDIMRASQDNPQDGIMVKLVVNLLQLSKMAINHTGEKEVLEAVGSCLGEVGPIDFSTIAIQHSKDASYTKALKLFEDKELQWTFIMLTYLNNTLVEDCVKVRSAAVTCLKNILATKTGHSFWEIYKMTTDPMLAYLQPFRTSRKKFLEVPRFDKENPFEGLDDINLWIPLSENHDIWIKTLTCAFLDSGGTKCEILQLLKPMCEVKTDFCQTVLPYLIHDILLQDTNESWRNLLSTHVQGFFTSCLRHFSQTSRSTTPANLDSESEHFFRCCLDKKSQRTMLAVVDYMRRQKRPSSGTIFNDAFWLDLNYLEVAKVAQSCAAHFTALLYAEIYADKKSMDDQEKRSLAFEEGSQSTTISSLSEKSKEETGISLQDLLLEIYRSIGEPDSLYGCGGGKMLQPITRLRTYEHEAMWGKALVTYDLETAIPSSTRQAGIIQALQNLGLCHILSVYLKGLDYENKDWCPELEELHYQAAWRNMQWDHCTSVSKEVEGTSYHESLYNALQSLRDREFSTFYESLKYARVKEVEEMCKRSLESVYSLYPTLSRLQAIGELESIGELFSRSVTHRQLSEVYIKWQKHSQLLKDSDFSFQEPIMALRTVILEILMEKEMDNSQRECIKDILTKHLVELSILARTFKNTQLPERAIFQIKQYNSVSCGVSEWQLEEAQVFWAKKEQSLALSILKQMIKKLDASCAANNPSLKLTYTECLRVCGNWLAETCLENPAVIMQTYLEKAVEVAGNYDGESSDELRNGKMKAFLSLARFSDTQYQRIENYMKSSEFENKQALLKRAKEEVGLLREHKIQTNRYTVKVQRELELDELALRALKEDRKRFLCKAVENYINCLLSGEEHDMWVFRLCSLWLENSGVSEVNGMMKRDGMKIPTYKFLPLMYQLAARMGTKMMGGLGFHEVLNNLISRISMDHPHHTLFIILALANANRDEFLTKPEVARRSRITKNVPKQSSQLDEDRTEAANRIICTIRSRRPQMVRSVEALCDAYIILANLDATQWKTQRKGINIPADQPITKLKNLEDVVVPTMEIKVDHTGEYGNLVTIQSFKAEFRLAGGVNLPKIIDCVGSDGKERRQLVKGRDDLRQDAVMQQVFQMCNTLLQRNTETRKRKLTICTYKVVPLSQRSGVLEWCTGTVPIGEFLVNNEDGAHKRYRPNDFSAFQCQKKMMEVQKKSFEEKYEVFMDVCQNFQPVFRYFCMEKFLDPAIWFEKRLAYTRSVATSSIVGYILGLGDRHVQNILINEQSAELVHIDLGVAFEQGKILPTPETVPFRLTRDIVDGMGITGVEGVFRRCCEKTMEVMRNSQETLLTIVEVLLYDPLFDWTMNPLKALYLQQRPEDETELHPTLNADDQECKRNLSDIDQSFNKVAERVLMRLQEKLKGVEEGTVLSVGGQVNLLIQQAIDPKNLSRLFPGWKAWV
Sequence of UniProt Q16774 (whole entry, unmodified, looked up): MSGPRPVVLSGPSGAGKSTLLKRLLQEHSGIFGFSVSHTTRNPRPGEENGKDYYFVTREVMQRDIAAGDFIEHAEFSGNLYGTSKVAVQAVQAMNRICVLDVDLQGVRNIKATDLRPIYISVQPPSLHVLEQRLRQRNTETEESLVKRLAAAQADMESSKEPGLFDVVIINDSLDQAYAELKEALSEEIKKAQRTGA
Sequence of UniProt Q01105 (whole entry, unmodified, looked up): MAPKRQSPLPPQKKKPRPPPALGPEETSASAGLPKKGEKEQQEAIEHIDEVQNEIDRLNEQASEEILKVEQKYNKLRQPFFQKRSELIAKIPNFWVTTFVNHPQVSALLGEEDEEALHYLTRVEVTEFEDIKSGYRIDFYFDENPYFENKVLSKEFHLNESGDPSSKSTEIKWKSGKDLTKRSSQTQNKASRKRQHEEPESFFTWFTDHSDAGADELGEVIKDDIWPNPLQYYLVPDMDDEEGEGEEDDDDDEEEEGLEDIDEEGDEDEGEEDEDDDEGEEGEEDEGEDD

CCN1CCC[C@H]1CNC(=O)c1c(O)c(Cl)cc(Cl)c1OC
log2 fold change (Proto-oncogene Mas (Homo sapiens, UniProt P04201); β-arrestin recruitment, TANGO luminescence, refers to: MAS1; concentration not given; relative to: basal luminescence): -0.106

COC(=O)c1cccc(C(=O)c2c[nH]c3ccc(Cl)cc23)n1
Emax (Aryl hydrocarbon receptor (AHR, Homo sapiens, UniProt P35869); reporter gene, agonist, XRE luciferase; HepG2; relative to: ITE): 70 ± 8%

Nc1ncnc2c1ncn2[C@@H]1O[C@H](COP(=O)(O)OP(=O)(O)OP(=O)(O)O)[C@@H](O)[C@H]1O
Kd (T1, ssDNA, aptamer; ITC): 719 nM

CCCCCCCCCCCCC/C=C/[C@@H](O)[C@H](CO)NC(=O)CCCCCCCCCCCCCCCCCCCCCCCCC
lipid fraction bound (Protein SET (SET, Homo sapiens, UniProt Q01105, Y135C); lipid binding, GFP pull-down LC-MS/MS; A549 overexpressing GFP-tagged protein; relative to: eluate plus flow-through): 10.9%

CC(=O)c1ccccc1N
Emax (Or8a1 (Mus musculus, UniProt Q60893); odorant-evoked current, agonist; isolated olfactory neurons; relative to: acetophenone saturated response): 109 ± 1%

Oc1ccccc1-c1n[nH]cc1-c1ccnc2ccccc12
log2 fold change (Serine/threonine-protein kinase STE7 homolog (HST7, Candida albicans, UniProt Q5A6T5); kinase binding, MIB/MS competition; Candida albicans lysate; 10 µM; relative to: DMSO, negative = stronger binding): -0.05

O=C(CNc1cccc2c1C(=O)N(C1CCC(=O)NC1=O)C2=O)NCCCCCCN1CCc2c(c3ccccc3n2Cc2ccc(C(=O)NO)cc2)C1 (stereo not shown)
degradation (Protein deacetylase HDAC6 (HDAC6, Homo sapiens, UniProt Q9UBN7); degrader, western blot; MM1.S; 5 µM, 24 h): 96%

CC[C@@H]1[C@H](F)C(=O)N[C@@H]1COc1nccc2cc(C(N)=O)c(OC)cc12
inhibition (Serine/threonine-protein kinase 3 (STK3, Homo sapiens, UniProt Q13188); ATP-site probe binding, ActivX profiling, refers to: MST2; THP-1 cell lysate; 0.04 mM, Lys1 site): -5.9%

O=[N+]([O-])c1cc(C(F)(F)F)ccc1NCc1ccsc1
ΔG (Endothelial PAS domain-containing protein 1, PAS-B domain (EPAS1, Homo sapiens, UniProt Q99814); binding, ITC, reverse mode): -8.43 ± 0.5 kcal/mol

NCCCC[C@H](N)C(=O)O
Km (Lysine--tRNA ligase (KARS1, Homo sapiens, UniProt Q15046); substrate): 22.9 ± 3.72 µM

CC1CCCN(C(=O)c2cc3ncccn3n2)C1 (stereo not shown)
log fold enrichment (DDB1- and CUL4-associated factor 7 (Homo sapiens, UniProt P61962); binding, affinity selection mass spectrometry; relative to: other proteins in batch): 0.0318

N[C@@H]1CCN(c2nccc(-c3cnn4ncccc34)n2)C1
remaining binding (Tyrosine-protein kinase ABL1 (ABL1, Homo sapiens, UniProt P00519, Q252H); KINOMEscan; 1 µM): 91%

C=CC(=O)N1CCC[C@@H](n2nc(-c3ccc(Oc4ccccc4)cc3)c3c(N)ncnc32)C1
remaining activity (Serine-protein kinase ATM (ATM, Homo sapiens, UniProt Q13315); 1 µM): 203%

O=C(C#Cc1ccc(F)c(F)c1)c1cccc(Cl)c1
binding (mvfR (Pseudomonas aeruginosa, UniProt Q9I4X0); receptor binding; concentration not given, 1.5 h, added: PQS at 1:1 ratio; relative to: control): 80%

O=C1C=CC(=O)c2c1ccc1ccccc21
fold change (Aryl hydrocarbon receptor (Danio rerio, UniProt Q9YGV3); reporter gene, agonist, luciferase reporter; ZF-4; 13.72 µM; relative to: vehicle control): 4.04

Nc1ncnc2c1ncn2[C@@H]1O[C@H](COP(=O)(O)OP(=O)(O)O)[C@@H](O)[C@H]1O
ΔH (GUK1 (Homo sapiens, UniProt Q16774); ITC; molar ratio 1.741): -0.554 kcal/mol
